Measured values from different studies.
Each line is one published result; not all experiments were run side by side. Numbers after ± are the reported error.
CD38: ADP-ribosyl cyclase/cyclic ADP-ribose hydrolase 1 (CD38, Homo sapiens, UniProt P28907)
T1: RNA aptamer; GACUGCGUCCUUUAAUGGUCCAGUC
T2: RNA aptamer A8G; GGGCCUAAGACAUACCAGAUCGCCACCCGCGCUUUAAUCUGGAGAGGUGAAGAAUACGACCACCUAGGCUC

SMILES	target	assay	system	conditions	how to read	endpoint	result
CN1CCN(CC(=O)N2N=C3/C(=C/c4ccccc4)CCCC3C2c2ccccc2)CC1 (mixture of isomers)	ALOX15 (Homo sapiens, UniProt P16050)	enzyme activity, activator		concentration not given, 10 µM activator, together with: 25 µM docosahexaenoic acid	relative to: without activator	change in lag phase	84 s
CC(=O)NCCN(CC(=O)NCCN(CC(=O)NCCN(CC(=O)NCCC(N)=O)C(=O)[C@@H](N)CCCNC(=N)N)C(=O)[C@@H](N)CCCCN)C(=O)[C@@H](N)Cc1ccccc1	HIV-1 TAR RNA			concentration not given		heat capacity change ΔCp	-2.9 ± 0.38 kJ/mol/K
CC(C)=CCCC(C)=CCc1cc(-c2coc3cc(OC4OC(C(=O)O)C(O)C(O)C4O)ccc3c2=O)ccc1O (stereo not drawn)	UGT1A7 (Homo sapiens, UniProt Q9HAW7)	glucuronidation, substrate, recombinant enzyme				Vmax	441 pmol/min/mg
CCc1nc2sc(C(=O)c3ccc(C(C)C)cc3)c(N)c2c2c1CCCC2	CD38	cyclase activity, fluorometric		50 µM, together with: NGD+ substrate	relative to: untreated	remaining activity	28.1 ± 9.2%
C=C[C@]12CCC(=O)C=C1CC[C@H]1[C@@H]3CC[C@H](C(C)=O)[C@@]3(C)CC[C@@H]12	Membrane progesterone receptor epsilon (Paqr9, Mus musculus, UniProt Q6TCG2)	pPKA/PKA immunoblot	MDA-MB-231 expressing Paqr9-GFP	10 nM, 20 min	relative to: control	PKA activation	158 ± 17.9%
CNc1ccccc1C(=O)O[C@H]1C[C@H](n2cnc3c(N)ncnc32)O[C@@H]1COP(=O)(O)OP(=O)(O)O	Unconventional myosin-Va (Gallus gallus, UniProt Q02440, D297C/G292C/I296C/S293C/V295G)	stopped-flow FRET		10 °C, together with: EDTA 4 mM		association rate constant	4.15 ± 0.27 µM⁻¹ s⁻¹
NC(=O)C1CCNC(=O)C(CCCNC(=O)c2cnccn2)NC(=O)C(Cc2ccco2)NC(=O)C(CC2CC2)NC(=O)C=CC(=O)N1 (stereo not drawn)	AKT3 (Homo sapiens, UniProt Q9Y243)	DNA-templated library selection		one selection round		enrichment factor	2.2
CC(=O)NCCN(CC(=O)NCCN(CC(=O)NCCN(CC(=O)NCCC(N)=O)C(=O)C[C@@H](N)Cc1ccccc1)C(=O)C[C@@H](N)CCCNC(=N)N)C(=O)C[C@@H](N)Cc1ccccc1	HIV-1 TAR RNA					non-electrostatic TΔS°	3.6 ± 1.1 kJ/mol
CC[C@@H](N)c1ccc(Cl)c(Oc2ccccc2)c1F	Genome polyprotein, NS3 protease (Hepatitis C virus genotype 1b, UniProt P26663)	protease activity, inhibitor				IC50	inactive
NC[C@@H]1O[C@H](O[C@H]2[C@@H](O)[C@H](O[C@@H]3[C@@H](O)[C@H](N)C[C@H](N)[C@H]3O[C@H]3O[C@H](CN)[C@@H](O)[C@H](O)[C@H]3N)O[C@@H]2CO)[C@H](N)[C@@H](O)[C@@H]1O	T1, RNA aptamer	UV melting		1 µM RNA, 10 µM molecule, pH 6.8, NaCl 100 mM		melting temperature change	16.1 °C
CC(C)C[C@H](NC(=O)[C@H](CCCNC(=N)N)NC(=O)[C@H](Cc1ccc(O)cc1)NC(=O)CCCCCCC(=O)N[C@@H](Cc1ccc(O)cc1)C(=O)N[C@@H](CCCNC(=N)N)C(=O)N[C@@H](CC(C)C)C(=O)NN(CCCNC(=N)N)C(=O)N[C@@H](Cc1ccc(O)cc1)C(N)=O)C(=O)NN(CCCNC(=N)N)C(=O)N[C@@H](Cc1ccc(O)cc1)C(N)=O	NPY4R (Homo sapiens, UniProt P50391)	calcium mobilization, agonist, aequorin	CHO-hY4-Gqi5-mtAEQ	concentration not given, unit not given	relative to: 1 µM human pancreatic polypeptide	intrinsic activity	0.07
C[C@]12C[C@H](c3ccc(S(C)(=O)=O)cc3)C3=C4CCC(=O)C=C4CC[C@H]3[C@@H]1CC[C@@]2(O)C(F)(F)C(F)(F)F	Progesterone receptor (Rattus norvegicus, UniProt Q63449)	pregnancy termination	rat, early pregnancy	oral		fully effective dose	0.5 mg/kg
CC(=O)NCCN(CC(=O)NCCN(CC(=O)NCCN(CC(=O)NCCC(N)=O)C(=O)[C@@H](N)CCCCN)C(=O)[C@@H](N)Cc1ccccc1)C(=O)[C@@H](N)Cc1ccccc1	HIV-1 TAR RNA			concentration not given		heat capacity change ΔCp	-2.82 ± 0.15 kJ/mol/K
O=C(/C=C/c1ccc(O)cc1)c1c(O)cc(O)cc1O	Chalcone isomerase-like protein 1 (CHIL1, Humulus lupulus, UniProt A0A2U7XUH7, A143F/V139F)	binding, differential scanning fluorimetry		double mutant		ΔTm max	4.7 °C
Cc1c2c(cc3oc(=O)cc(-c4ccc(Cl)cc4)c13)C(=O)c1cccc(O)c1C2=O	mushroom tyrosinase	enzyme activity		25 µg/mL, together with: L-DOPA		inhibition	28.1 ± 0.95%
COc1cc(-c2cnc3nc2NCCCNS(=O)(=O)c2cccc(c2)N3)ccc1F	FGFR2 (Homo sapiens, UniProt P21802)	differential scanning fluorimetry		10 µM	higher = stronger binding	thermal shift ΔTm	4.4 K
Nc1ncnc2c1ncn2[C@@H]1O[C@H](CO)[C@@H](O[C@H]2O[C@H](CO)[C@@H](OP(=O)(O)O)[C@H](OP(=O)(O)O)[C@H]2O)[C@H]1O	Itpr1 (Rattus norvegicus, UniProt P29994)		DT40-IP3R1, permeabilized		relative to: ATP-dependent Ca2+ uptake	maximal Ca2+ release	72 ± 3%

SMILES	target	assay	system	conditions	how to read	endpoint	result
COc1ccc(NC(=O)c2ccccc2)c(C)n1	CES1 (Homo sapiens, UniProt P23141)	substrate		50 µM, pH 8, 37 °C, enzyme purity 25%		specific activity	2.3 pmol/min/µg
CC(=O)NCCN(CCC(=O)NCCN(CCC(=O)NCCN(CCC(=O)NCCC(N)=O)C(=O)[C@@H](N)Cc1ccccc1)C(=O)[C@@H](N)Cc1ccccc1)C(=O)[C@@H](N)CCCNC(=N)N	HIV-1 TAR RNA			extrapolated to 1 M KCl		non-electrostatic ΔG°	-34.7 ± 0.4 kJ/mol
CC(C)C[C@H](NC(=O)[C@H](C)NC(=O)[C@H](CCCCN)NC(=O)[C@H](CO)NC(=O)[C@H](Cc1ccccc1)NC(=O)[C@H](C)NC(=O)[C@H](Cc1ccccc1)NC(=O)[C@H](CCC(N)=O)NC(=O)CNC(=O)[C@@H]1CCCN1C(=O)[C@H](Cc1ccccc1)NC(=O)[C@@H](N)Cc1ccc(O)cc1)C(=O)N1CCC[C@H]1C(=O)N[C@@H](CCCNC(=N)N)C(=O)N[C@@H](CO)C(=O)O	CMKLR1 (Homo sapiens, UniProt Q99788)		L1.2 transfected with CMKLR1	100 nM, together with: carboxypeptidase N or B 30 nM		chemotaxis	no effect
CN1C[C@H](c2cccc(C(F)(F)F)c2)[C@@H](C(=O)Nc2ccccc2F)C1=O	PYRD (Oryza sativa, UniProt Q7XKC8)	binding, SPR				koff	0.151 s⁻¹
CCc1nc2cc3ccccc3cc2cc1C(=O)N1CCC[C@H]1C(=O)N[C@@H](C/C=C/C[C@H](NC(=O)[C@@H]1CCCN1C(=O)c1cc2cc3ccccc3cc2nc1CC)C(=O)N[C@@H](CCCCN)C(=O)NCCCN)C(=O)N[C@@H](CCCCN)C(=O)NCCCN	HIV-1 frameshift site RNA	SPR				residence time	177 s
O=C(O)C(CO)NCc1cc(Cl)c(OCc2cccc(-c3ccccc3)c2Br)cc1OCc1cccnc1 (stereo not drawn)	Programmed cell death 1 ligand 1 (Macaca fascicularis, UniProt G7PSE7)	SPR				dissociation rate constant (koff)	0.000202 s⁻¹
CN(C)[C@@H]1C(=O)C(C(N)=O)=C(O)[C@@]2(O)C(=O)C3=C(O)c4c(O)cccc4[C@@](C)(O)[C@H]3C[C@@H]12	T2, RNA aptamer A8G	fluorescence titration		pH 7.5, 25 °C, MgCl2 10 mM		Kd	1.05 nM
CCc1cc(C)n2nc(-c3ccc(OCC[18F])cc3)c(CC(=O)N(CC)CC)c2n1	Tspo (Rattus norvegicus, UniProt P16257)	two-tissue compartment model	rat C6 glioma model, tumor	60 min dynamic PET		k4 rate constant	0.017 ± 0.002 min⁻¹
Cc1cc(Cl)cc(-c2ccnc3cc(CN4C(=O)C5C(C4=O)C5(C)C)sc23)c1C[C@@H]1CNCCO1 (stereo partly drawn)	USP7 (Homo sapiens, UniProt Q93009, V517F)	enzyme activity, inhibitor, Ub-AMC			relative to: V517F over wild type	IC50 fold change	~2250 fold
CC1=CC(C)(C)N=C(Nc2nc(-c3ccccc3)c3ccccc3n2)N1	CD38	hydrolase activity, fluorometric		50 µM, together with: ε-NAD+ substrate	relative to: untreated	remaining activity	48.5 ± 2.3%
O=C1CC[C@H](N2Cc3cc(-c4cnn5ccc(NCCN6CCOCC6)nc45)ccc3C2=O)C(=O)N1	Cereblon/Casein kinase I alpha (CSNK1A1/CRBN, Homo sapiens, UniProt P48729+Q96SW2)	protein level, degrader, luciferase	MOLT-4			Dmax	0%
CSCC[C@H](NC(=O)[C@H](CO)NC(=O)[C@H](CC(N)=O)NC(=O)[C@H](CC(C)C)NC(=O)[C@H](Cc1c[nH]cn1)NC(=O)[C@H](CCCCN)NC(=O)CNC(=O)[C@H](CCCCN)NC(=O)[C@H](CC(=O)O)NC(=O)[C@H](Cc1c[nH]cn1)NC(=O)[C@H](CC(C)C)NC(=O)[C@H](CC(C)C)NC(=O)[C@H](CCC(N)=O)NC(=O)[C@H](Cc1c[nH]cn1)NC(=O)[C@H](CCC(=O)O)NC(=O)[C@H](CO)NC(=O)[C@@H](NC(=O)[C@H](C)N)C(C)C)C(=O)N[C@@H](CCC(=O)O)C(=O)N[C@@H](CCCNC(=N)N)C(=O)N[C@H](C(=O)N[C@@H](CCC(=O)O)C(=O)N[C@@H](Cc1c[nH]c2ccccc12)C(=O)N[C@@H](CC(C)C)C(=O)N[C@@H](CCCNC(=N)N)C(=O)N[C@@H](CCCCN)C(=O)N[C@@H](CCCCN)C(=O)N[C@@H](CC(C)C)C(=O)N[C@@H](CCC(N)=O)C(=O)N[C@@H](CC(=O)O)C(=O)N[C@H](C(=O)N[C@@H](Cc1c[nH]cn1)C(=O)N[C@@H](CC(N)=O)C(=O)N[C@@H](Cc1ccccc1)C(=O)N[C@@H](CCCCNC(=O)c1ccc2c(c1)C1(OC2=O)c2ccc(N(C)C)cc2Oc2cc(N(C)C)ccc21)C(N)=O)C(C)C)C(C)C	PTH1R (Homo sapiens, UniProt Q03431)	cAMP formation, agonist, GloSensor	HEK293 GP2.3		relative to: (1-34)	Emax	100 ± 2%
CC(C)N1CCn2cc(C(=O)NCc3ccc(F)cc3F)c(=O)c(O)c2C1=O	gag-pol/sso7d, integrase (Human immunodeficiency virus type 1 group M subtype B, UniProt P12497+P39476)	integrase strand transfer	HIV-1		relative to: cabotegravir, higher = more potent	potency ratio	~4 fold
C=C1C(=O)O[C@@H]2[C@H]3C(CO)=CC(=O)C3=C(C)C[C@H](O)[C@@H]12	MAL12 (Saccharomyces cerevisiae S288c, UniProt P53341)	fluorescence quenching		298 K		binding free energy	-21.6 kJ/mol
CC(=O)NCCN(CC(=O)NCCN(CC(=O)NCCN(CC(=O)NCCC(N)=O)C(=O)C[C@@H](N)CCCCN)C(=O)C[C@@H](N)Cc1ccccc1)C(=O)C[C@@H](N)Cc1ccccc1	HIV-1 TAR RNA			25 °C		binding free energy ΔG°	-37.8 ± 1.4 kJ/mol
CCCCCCCC/C=C\CCCCCCCC(=O)O[C@H]1C=CCO[C@@H]1COP(=O)(O)S (stereo partly drawn)	Lysophosphatidic acid receptor 6 (Homo sapiens, UniProt P43657)	agonist, TGFα shedding				Emax	32%

A few entries again:
SMILES	target	assay	system	conditions	how to read	endpoint	result
CCc1cc(C)n2nc(-c3ccc(OCC[18F])cc3)c(CC(=O)N(CC)CC)c2n1	Tspo (Rattus norvegicus, UniProt P16257)	two-tissue compartment model	rat C6 glioma model, tumor	60 min dynamic PET		k4 rate constant	0.017 ± 0.002 min⁻¹
COc1ccc(NC(=O)c2ccccc2)c(C)n1	CES1 (Homo sapiens, UniProt P23141)	substrate		50 µM, pH 8, 37 °C, enzyme purity 25%		specific activity	2.3 pmol/min/µg
COc1cc(-c2cnc3nc2NCCCNS(=O)(=O)c2cccc(c2)N3)ccc1F	FGFR2 (Homo sapiens, UniProt P21802)	differential scanning fluorimetry		10 µM	higher = stronger binding	thermal shift ΔTm	4.4 K
